# Assay results from different studies.
# A part holds a random share of what one study measured. Changes are numbered by the printed parent chain.

# Block 1
# Target: RNA binding protein fox-1 homolog 2, RRM domain, GST-SBP tag (RBFOX2, Homo sapiens, UniProt O43251-10, residues 100-194)
# Method: RNA Bind-n-Seq
# Molecule type: RNA
# Sample: in vitro
# Tested at: 365 nM
# Notes: natural RNA segment, single round, ends assumed
# Relative to: no-protein control
# Direction: higher = stronger binding
# All sequences stand within: GGGAGUUCUACAGUCCGACGAUC … UGGAAUUCUCGGGUGCCAA
# Target sequence (chain): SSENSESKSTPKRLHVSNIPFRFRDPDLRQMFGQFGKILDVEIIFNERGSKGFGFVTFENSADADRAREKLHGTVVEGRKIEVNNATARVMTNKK
Oligonucleotide,RBNS enrichment (R)
GAAUUUGUCUUGUCAUCUUUUAGAGUAAACUAAAAAUUGUAUAGUGUCUGCAAACACUACCCUACCUAAAUCCAGCCUCUAAGGUCUCACUGGUGUGGAAUUAAACUCUU,0.439
AGGCACAAUCACUGUUUCAGAUUUAAAAUUAUUAGUGUGUUUGUUUGGUCCAGAAACUGAGACAAUCACAUGACAGUCACCACGAGGAGAGAAAAUUUAAAAAAUAAAAA,0.632
UUAAUAUUGCUGUGAACAGUGGUGCCCAUUGUAGCAUAUGUUUGAUUUUUUUUUAUUAUUUCAUAAGAAAACUACGUUAAUUUUACCUUACUUUCAUUGUAAAUAAGCCU,0.822
GGGAGAAAGAGAAGGCAACUCCUCCUUACCCCCCACACUGGUAAUCUUUCCAACCAGCAUCCCAGACCUCGGACUCUUGAAGGGAAAAGAGUCUAACUCCCUCCUCCCUA,0.33
AGUAUGAUGAGCAAAAGGCCAGAACUCCAGUGUCCUGUGAGAUUGGCUGACCCGAGCGAGGUAUUAUCUCGGUCUUCAGCCGCUGGAGUUUCAGGGCUGGGCAGCAGGUU,0.693
UUUAAAAUCCCAAUUUAUUUUCUAACUCUUUUAUUGGAUGUAUUUAGAACACAGUAUACCUAUAGUAUACCUAUGUGUUUAUUAUGUUUGUAAAUGGUAACUGACAUUUA,0.808
AAUGUAAAUCACUAUAAUUACAAAUUGGUGUUAAAUCCUUUGGGUUAUCCACUGCCUUAAAAUUAUACCUAUUUCAUGUUUAAAAAGAUAUCAAUCAGAAUUGGAGUUUU,0.319
CUCUGAGGUUGCUAGUGACAUUUGAAACAGUCCUGUGUGGUCACCAGAAAAUAAGCCAUUCCUCAUAUCAGUGGGAUAAACUCCUUGUACCUCUUGCUGUGUUUGGAUCC,0.414
UGUUUAGAAGCAGCAGGCAAUGUAGUUAACAGCAUAGACUUCCGUGUCUUGUGUGUGGUACCUUGGGCAAGUUACUAACUCCCUCUGUAAAGUAGAGACGAUGGGGACUG,0.758
UACCGGGAAAGUUGGUUAUCUUGGGGUCUCAGCUUCAUUACUGCUUAGGGUUUCCCUGCCCACUCUGCAGGAGCAGAUGUUGGACAGGUAGCCAGUGGGAUGCCACUGCU,0.269
CUUUCCUUUAUUUUUUCUUCUGAAUAAAUAGAAAACCAACAGUUUGAUUUCCUUUUCCCUUAAAGGAAACAACUAAUACACAUUCUUAUAUGGCUUUAUGUAGUAAUAGU,1.01
GGUAGCAUCAGGUAUUGACAGGGAUCUGAAUCCCAAAGCAGAGAGAGAGGUCCAACCCCGUGUGGCCAGGCAGUGGCCCCUCACUCUUGCUUAGUGUCCAUCUCAUUUCU,0.474

# Block 2
# Target: Histone acetyltransferase KAT6A, winged helix 1, GST fusion (KAT6A, Homo sapiens, UniProt Q92794, residues 1-85)
# Method: protein binding microarray
# Molecule type: double-stranded DNA, one strand shown
# Sample: in vitro
# Tested at: not given
# Notes: 8-mer, flanks averaged, mean of 2 arrays, mostly near background
# Relative to: not given
# Direction: higher = stronger binding
# Construct (chain): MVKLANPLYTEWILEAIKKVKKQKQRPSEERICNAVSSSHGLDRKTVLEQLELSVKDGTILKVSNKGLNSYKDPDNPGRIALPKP
Oligonucleotide,E-score
AGGTCACA,0.00882
ACTTTTGG,-0.0912
AATCCGAG,0.0528
AAGGTAGA,-0.198
AACAACTG,-0.0688
GTGTGTCA,-0.0524
GAAAACAC,0.0388
AGCGACGG,0.43
CTATCATA,0.00556
GCGGCGCC,0.46
CGAACTAG,-0.116
ACAGGAAA,-0.00924
ACGGAGTC,0.0285
CCCGGACC,0.0192
GTCCCCGA,0.0399
CAACTAAA,-0.079
GAGATCAA,-0.0105
ACGGCAAA,0.359
CAAATTGC,-0.1
GTTTACAA,-0.216
CATAGAAC,-0.0894
TAAGATAA,-0.0688
GTCGCGGA,0.353
GATGAATA,-0.108
TCCCTGAA,-0.0652

# Block 3
# Target: CCNE1, cyclin fold, Cln2 fusion (human)
# Method: yeast growth competition, sequencing
# Sample: yeast
# Notes: strong parent motif
# Relative to: not given
# Direction: higher = stronger binding
# Parent: CDKN1B docking peptide (human); PSACRNLFGPVDH
Substitution,normalised enrichment score
R5D,-0.0396
L7Y,0.0711
D12N,3.27
P10V,2.71
R5Y,0.922
S2N,2.97
V11Y,4.15
A3Y,3.79
L7H,0.0118
P1F,3.95
P10S,3.33
D12M,2.97
P10I,2.03
N6V,4.97
L7E,0.134
F8H,0.375
P1L,2.1
F8C,-0.365
A3R,0.484

# Block 4
# Target: RING finger protein unkempt homolog, zinc fingers 1-6, GST-SBP tag (UNK, Homo sapiens, UniProt Q9C0B0, residues 30-357)
# Method: RNA Bind-n-Seq
# Molecule type: RNA
# Sample: in vitro
# Tested at: not given
# Notes: RNA with constant flanks, human-mouse chimeric sites, ends assumed
# Relative to: input RNA pool
# Direction: higher = stronger binding
# All sequences stand within: GGGAGUUCUACAGUCCGACGAUC … CAACAGAGGAUUGAGCAUCA
# Residues (chain): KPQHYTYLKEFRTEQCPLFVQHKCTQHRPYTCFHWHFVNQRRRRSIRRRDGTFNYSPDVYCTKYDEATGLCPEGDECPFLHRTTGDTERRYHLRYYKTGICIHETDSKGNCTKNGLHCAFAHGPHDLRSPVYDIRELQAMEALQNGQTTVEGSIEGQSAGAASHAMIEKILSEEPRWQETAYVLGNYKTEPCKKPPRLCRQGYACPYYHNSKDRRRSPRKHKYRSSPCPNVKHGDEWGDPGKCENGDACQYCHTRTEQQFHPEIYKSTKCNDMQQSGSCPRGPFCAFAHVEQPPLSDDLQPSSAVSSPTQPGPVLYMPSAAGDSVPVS
Oligonucleotide,bound/input enrichment
UAAAUUAGCCAGCACCAUUUCUGUUUCUCCCUGGGCUGCGGAAAGCCAGGCGGUUUUAUCUAGCUUAUACAAGGCUGCUGGUGUUCCCUCUUUUUUUCCACGAGGGUGUUUUUGGCUGCA,3.58 ratio
CUAGCAGUCCAGCAGCUAGAAGGAGCCUUGAGACAAACACUCCACACACAGGGAAGGCGAUAACAUUGUACAUUGGUUUACAUUUUUUCCCCCUGUGUUUUCUAGGGGAGGUCAUAGUGC,0.812 ratio
AUGCAGUAUGAGACCAACAGCAUGGACUUCAAAGUUGGGGCAGAUGGGACAGUCUUCGCCACCCGGGAGUUGAAGAUCCCCUCCGAGCAGGUGGCGUUCACGGUGACUGCAUGGGACAGC,0.192 ratio
GGUGGGGUGGUCAUUGCCGUUUGAGCUGCUGAUUUUCAUGAGUCGCCUUCAAAACUCUCGUGUAGGGUUGACAAUGUAAGGGGUGGGGGGAUCCAGCUUAUUCUUUUAUUUUCAAGUCCA,0.504 ratio
UUGAAAACUGAUUCAAGUAAGUUUGAGUAUCACAAUGUUAGCUUUCUAAUUCCAUAAAAGUACUUGGUUUUUACAGUAACCCCACAUCAAUCCAUCAAGCGCCAUUUGUAAAGAGCAACU,0.594 ratio
AGUGUGCAGGAAUUCAUGACCUUCACGAGUCAACUGAUUGUGGAACGCUCAUCGAAAGGCAGCAGAGCUUCUGUCAAAGAACAAGAGUAUCUUUGCCAUGUCUACGUCCGGAGCGACAGU,0.058 ratio
GCACUUGGGAAUGUAAUCAGCGCCUUGGGGGACAAGAGCAAGAGAGCCACCCAUGUCCCUUACAGAGACUCUAAGCUGACAAGACUCUUGCAGGAUUCCCUCGGGGGUAACAGCCAAACC,0.131 ratio
CUCAGAGAUGUGGCAUAUCAGUAUGUGAAAAAGGGGUCUCGUAUAUUUGUGGAAGGGAAAGUGGACUAUGGCGAGUACAUGGAUAAAAAUAAUGUGAGGCGGCAAGCAACAACAAUCAUA,0.524 ratio
GAUGAUAAUCACACAAACAAGUCACUGUUACAUGACCAGCCUUGGGAUUCUUUUCCUGAUUAAUAUUCUCCCUGGAACCACUAGCCAAGGGGAAUCAAGACGACAAGAACCUGGGGACUU,0.181 ratio
GAUCCACAGUGGUCUGAGGAGCAACUCAUUGCUGCAAAAUUCUGUUUUGCUGGACUUGUUAUAGGGCAGACUGAAGUGGACAUCAUGAGUCAUGCUACACAAGCUAUUUUUGAAAUUCUG,0.167 ratio
UUAAUCCCCUUUACUGCUCCCCCACUUCUCAUGGUAAUAACAAAGUCUUAUAUCCCCAUAUUAGCUUUCACUCAGAUGGCUUAUGGAGCCGGUUUCCUAUCUUUCUUGGGAGGGAUCAGA,0.264 ratio

# Block 5
# Target: Interferon regulatory factor 7, full length, phosphomimetic (IRF7, Homo sapiens, UniProt Q92985, residues 1-503, S471D/S472D/S475D/S476D/S477D/S483D/S484D/S487D)
# Method: protein-binding microarray
# Molecule type: double-stranded DNA, one strand shown
# Sample: in vitro
# Tested at: 2200 nM top
# Notes: 60-bp whole probe
# Added: salmon DNA 0.4 mg/ml
# Relative to: random background probes
# Direction: higher = stronger binding
# All sequences stand within: GCCTAGCAC … GTCTTGATTCGCTTGACGCTGCTG
# Construct (chain): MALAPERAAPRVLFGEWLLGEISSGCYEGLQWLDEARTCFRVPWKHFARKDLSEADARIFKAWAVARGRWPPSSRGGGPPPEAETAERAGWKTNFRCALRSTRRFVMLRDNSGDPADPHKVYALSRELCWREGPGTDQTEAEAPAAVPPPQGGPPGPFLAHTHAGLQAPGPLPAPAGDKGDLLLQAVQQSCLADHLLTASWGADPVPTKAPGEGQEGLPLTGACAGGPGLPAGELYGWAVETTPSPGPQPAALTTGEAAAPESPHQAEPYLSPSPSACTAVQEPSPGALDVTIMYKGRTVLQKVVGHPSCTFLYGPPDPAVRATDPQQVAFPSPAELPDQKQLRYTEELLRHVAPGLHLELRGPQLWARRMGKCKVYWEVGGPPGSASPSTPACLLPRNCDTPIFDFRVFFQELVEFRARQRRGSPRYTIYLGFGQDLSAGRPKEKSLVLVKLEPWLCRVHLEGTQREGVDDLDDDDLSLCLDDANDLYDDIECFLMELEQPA
Oligonucleotide,fitted relative affinity [z-score]
GACGGTATGCTTCTCCTGACGTGCTAG,0.724
TGGGTAATGCTTCTGTATTCGTGCTAG,0.613
TTCGGTTTCGGGTATCGGTTAGTGCTA,8.4
TTAGATTTCGGGTATTGATTAGTGCTA,2.39
TTAGATTTTAGTCTCGATTAGTGCTAG,0.41
TCAGCTTCCTAATTCTCACTGTGCTAG,1.73
TTAGATTTCAGTTCCGATTAGTGCTAG,2.05
GACTGTATCCTTATCCTGACGTGCTAG,1.56
GAGTCTTCTCCTCTAGGTTCGTGCTAG,1.17
TCAAGCTTGGGTCTGTGACTGTGCTAG,-0.332
GACGATATCGGGTTTTGAGACGTGCTA,0.24
GACAAACTGAGACTGGAGACGTGCTAG,-0.277
CCGCCGCCTGGCTGGGGGATGTGCTAG,-0.542
TCATCTCTCCATGTGTTACTGTGCTAG,2.22
TTAGATTTCGGGAATGGATTAGTGCTA,0.432
TTTGCTTTCTTTATGTACTCGTGCTAG,3

# A few entries again (block 5):
Oligonucleotide,fitted relative affinity [z-score]
GACAAACTGAGACTGGAGACGTGCTAG,-0.277
GACTGTATCCTTATCCTGACGTGCTAG,1.56
TTAGATTTTAGTCTCGATTAGTGCTAG,0.41
GACGATATCGGGTTTTGAGACGTGCTA,0.24
TTAGATTTCGGGTATTGATTAGTGCTA,2.39
GACGGTATGCTTCTCCTGACGTGCTAG,0.724
CCGCCGCCTGGCTGGGGGATGTGCTAG,-0.542
